Assay results gathered from unrelated publications.
Lines come from different studies, so protocols differ.
PFF0160c: Dihydroorotate dehydrogenase (quinone), mitochondrial (PFF0160c, Plasmodium falciparum, UniProt Q08210)
CA2: Carbonic anhydrase 2 (CA2, Homo sapiens, UniProt P00918)
TMEM97: Sigma intracellular receptor 2 (TMEM97, Homo sapiens, UniProt Q5BJF2)
UniProt Q5BJF2, sequence (whole entry, looked up): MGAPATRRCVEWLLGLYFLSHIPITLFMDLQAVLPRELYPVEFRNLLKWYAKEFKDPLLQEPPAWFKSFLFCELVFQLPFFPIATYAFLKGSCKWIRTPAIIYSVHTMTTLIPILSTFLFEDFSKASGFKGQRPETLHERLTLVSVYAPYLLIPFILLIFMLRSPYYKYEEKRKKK
UniProt P53778, sequence (whole entry, looked up): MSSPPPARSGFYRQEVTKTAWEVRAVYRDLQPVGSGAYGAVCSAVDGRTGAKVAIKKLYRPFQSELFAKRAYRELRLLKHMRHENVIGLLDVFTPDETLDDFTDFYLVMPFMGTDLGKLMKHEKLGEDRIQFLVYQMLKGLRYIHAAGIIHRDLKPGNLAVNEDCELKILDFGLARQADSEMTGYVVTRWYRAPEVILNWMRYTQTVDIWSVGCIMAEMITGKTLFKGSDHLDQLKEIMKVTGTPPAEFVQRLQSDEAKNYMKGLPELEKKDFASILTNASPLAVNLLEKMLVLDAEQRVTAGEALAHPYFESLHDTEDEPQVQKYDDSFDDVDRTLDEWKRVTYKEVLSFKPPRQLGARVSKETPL
UniProt P35414, sequence (whole entry, looked up): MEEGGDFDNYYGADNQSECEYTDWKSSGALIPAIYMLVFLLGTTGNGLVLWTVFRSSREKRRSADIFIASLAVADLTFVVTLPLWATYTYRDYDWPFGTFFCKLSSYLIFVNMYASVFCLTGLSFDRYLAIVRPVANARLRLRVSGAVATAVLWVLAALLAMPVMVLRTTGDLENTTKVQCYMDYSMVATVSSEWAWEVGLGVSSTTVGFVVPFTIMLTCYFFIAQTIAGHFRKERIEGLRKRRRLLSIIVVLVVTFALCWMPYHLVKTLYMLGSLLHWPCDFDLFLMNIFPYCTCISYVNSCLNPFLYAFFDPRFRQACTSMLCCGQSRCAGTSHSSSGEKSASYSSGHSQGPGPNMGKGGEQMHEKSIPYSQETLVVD

The IC50 of `Cc1nc2c(=O)sc3ccccc3c2n1Cc1ccccc1` is reported as 834 nM (PFF0160c; enzyme activity, inhibitor, absorbance).
For `N=C(N)NCCC[C@H](NC(=O)[C@@H](N)CCCNC(=N)N)C(=O)N[C@@H](Cc1ccc(O)cc1)C(=O)N[C@@H](CCCCN)C(=O)N[C@@H](CCC(N)=O)C(=O)O`, the Kd was 5 nM (sapA (Haemophilus influenzae, UniProt Q4QL73); binding).
With `O=C(Nc1ccc2c(c1)C=CCP(=O)(O)O2)c1ccc(I)cc1` the Ki was > 10000 nM (CA2; enzyme activity, inhibitor, stopped-flow).
`O=C(CN1CCC(CN2Cc3ccccc3C2=O)CC1)c1ccc(F)cc1` gave a Ki of 88.4 nM (TMEM97; ligand displacement, radioligand).
`O=C(Nc1ccc(C(F)(F)F)cc1)Nc1ccc2c(c1)C=CCP(=O)(O)O2` has a Ki of > 10000 nM (CA2; enzyme activity, inhibitor, stopped-flow).
For `CCc1nc2nc(C)cc(Nc3ccc(F)c(Cl)c3)n2n1`, the IC50 was 1000 nM (PFF0160c; enzyme activity, inhibitor, absorbance).
For `CC[C@H](C)[C@H](NC(=O)[C@H](CCCNC(=N)N)NC(=O)[C@H](CCCNC(=N)N)NC(=O)[C@H](CCC(=O)O)NC(=O)[C@H](CCC(=O)O)NC(=O)[C@@H](N)[C@@H](C)O)C(=O)N[C@@H](CCSC)C(=O)N[C@@H](CCCNC(=N)N)C(=O)N[C@@H](C)C(=O)N[C@@H](CCCNC(=N)N)C(=O)N[C@H](C(=O)N[C@@H](CCC(N)=O)C(=O)NCC(=O)N[C@@H](CC(C)C)C(=O)N[C@@H](CC(C)C)C(=O)N[C@@H](Cc1c[nH]c2ccccc12)C(=O)O)[C@@H](C)O`, the EC50 was 416 nM (Apelin receptor (APLNR, Homo sapiens, UniProt P35414); calcium signal, agonist, fluorescence).
`CCOC(=O)c1cn(CC)c2cc(O[C@H]3CCN(C(=O)OC(C)(C)C)C3)ccc2c1=O` gave an IC50 of > 10000 nM (PFF0160c (Plasmodium falciparum, UniProt Q08210, E182D); enzyme activity, inhibitor, absorbance).
The Kd of `FC(F)(F)Oc1ccc(OCCn2c(CNCC34CC5CC(CC(C5)C3)C4)nc3ccccc32)cc1` is reported as 90000 nM (Penicillin-binding protein 2X (Streptococcus pneumoniae R6, UniProt P59676); binding, MST).
The remaining binding of `[2H]c1c([2H])c([C@]2([2H])CCCN2C(=O)C(C)(C)Oc2ccc3cn[nH]c3c2)c([2H])c([2H])c1C([2H])([2H])[2H]` is reported as 71% (MAPK12 (Homo sapiens, UniProt P53778); binding, competition with immobilised ligand; 1 µM).
For `O=C(Nc1ccc2c(c1)C=CCP(=O)(O)O2)Nc1ccccc1Br`, the Ki was > 10000 nM (CA2; enzyme activity, inhibitor, stopped-flow).
For `COc1ccc(CCN2CCC(Nc3nc4ccccc4n3Cc3ccc(F)cc3)CC2)cc1`, the Ki was 84.2 nM (TMEM97; ligand displacement, radioligand).
`Cc1cn([C@H]2C[C@H](O)[C@@H](COP(=O)(O)OP(=O)(O)OP(=O)(O)O)O2)c(=O)[nH]c1=O` gave a Kd of > 4000 nM (dgt (Salmonella enterica, UniProt A0A5H6DAK1, H126A/E129A); binding, ITC).

A few entries again:
`Cc1cn([C@H]2C[C@H](O)[C@@H](COP(=O)(O)OP(=O)(O)OP(=O)(O)O)O2)c(=O)[nH]c1=O` gave a Kd of > 4000 nM (dgt (Salmonella enterica, UniProt A0A5H6DAK1, H126A/E129A); binding, ITC).
